{"data": "Published values from different studies", "note": "Each numbered part is a random draw from the data of one study; scales do not carry over between parts."}
{"data": "Set 1", "target": "Ras GTPase-activating protein-binding protein 1, C-terminal RGG region (G3BP1, Homo sapiens, UniProt Q13283)", "technique": "RNA Bind-n-Seq", "form": "RNA", "medium": "in vitro", "tested at": "1 µM", "setting": "whole 134-nt RNA, ends assumed", "added": "150 mM KCl", "baseline": "input library", "reading": "higher = stronger binding", "constant ends, left off below": "GGGAGUUCUACAGUCCGACGAUC … UGGAAUUCUCGGGUGUCAAGG", "chain of UniProt Q13283 (whole entry, looked up)": "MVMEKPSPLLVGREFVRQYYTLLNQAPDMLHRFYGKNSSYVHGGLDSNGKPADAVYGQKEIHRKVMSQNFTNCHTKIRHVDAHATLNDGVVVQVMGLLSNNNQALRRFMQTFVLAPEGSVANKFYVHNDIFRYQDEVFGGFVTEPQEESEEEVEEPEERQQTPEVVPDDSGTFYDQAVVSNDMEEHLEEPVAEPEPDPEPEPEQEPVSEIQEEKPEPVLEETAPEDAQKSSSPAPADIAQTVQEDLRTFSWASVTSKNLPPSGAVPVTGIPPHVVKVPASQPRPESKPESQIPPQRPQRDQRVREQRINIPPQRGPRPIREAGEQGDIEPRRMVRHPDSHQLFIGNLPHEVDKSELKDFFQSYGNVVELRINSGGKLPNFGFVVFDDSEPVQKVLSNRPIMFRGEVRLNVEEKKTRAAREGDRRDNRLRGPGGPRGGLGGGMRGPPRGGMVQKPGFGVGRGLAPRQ"}
{"Sequence": "UCAAGUCCUGUGCUACACAUCGUAUGUACCGAAUCGGAAAGGAAAAAAAGGAGGAAAGUAUUAUGUUACGCCGUUCGGAUCUGCACUUCC", "log2 enrichment": -1.42}
{"Sequence": "UUUAGUGACUUUGGAUGAAGUAACUGAAGAGGAUGAAGACUCUCUGGCGGAUUUUAACAACCUUAAAGAAGAGCUUAAUUUUGUUACUGU", "log2 enrichment": -2.13}
{"Sequence": "ACCAUGCAGGUGGGCAUCUUUGAGAAGUGGGGCAAGGGGGGGAUAGGGAGGGGGGUAACACUUUGGGAACAGGUGGUCCCAGGUCGUUUC", "log2 enrichment": -1.12}
{"Sequence": "CACAGACAACACGCACCCACUCAGACACAGAGGGAAGGGGUUGGGAUGGGGACAGGGUGCACAGCAGGGCGGGGUAGGACCCCAGCCCCU", "log2 enrichment": -0.246}
{"Sequence": "GCAGGAAGUAAAAACAAAUGGAAAUGCUUCGGAUAGUGGCAGGGGUGGGGGUUGCUAAGGAAAGGGUGAGAUGGGAGUGGGUAAAGAGUU", "log2 enrichment": 1.84}
{"Sequence": "AAGUCCUGUGCUACACAUCGUAUGUACCGAAUCGGGAAAGGGAGGGAAAAAAAGGGAAAGUAUUAUGUUACGCCGUUCGGAUCUGCACUU", "log2 enrichment": -0.135}
{"Sequence": "CUGUGCUACACAUCGUAUGUACCGAAUCGGGGUUUGGGGUUUUUUUGGGGAAAAAAAGGGGAAAGUAUUAUGUUACGCCGUUCGGAUCUG", "log2 enrichment": 0.364}
{"Sequence": "UUUAAACUGAAGCCGCGGCCGAAAACGCCAAGAGAUUGAUGCUGUAGCUGCCCUGAGAUAACCAGGACUGUGGAAUCGGGAAGAGCUCAU", "log2 enrichment": -0.784}
{"data": "Set 2", "target": "Histone acetyltransferase KAT6A, both winged helices, GST fusion (KAT6A, Homo sapiens, UniProt Q92794, residues 1-181)", "technique": "protein binding microarray", "form": "double-stranded DNA, one strand shown", "medium": "in vitro", "tested at": "not given", "setting": "8-mer, flanks averaged, mean of 2 arrays, mostly near background", "baseline": "not given", "reading": "higher = stronger binding", "Target sequence (chain)": "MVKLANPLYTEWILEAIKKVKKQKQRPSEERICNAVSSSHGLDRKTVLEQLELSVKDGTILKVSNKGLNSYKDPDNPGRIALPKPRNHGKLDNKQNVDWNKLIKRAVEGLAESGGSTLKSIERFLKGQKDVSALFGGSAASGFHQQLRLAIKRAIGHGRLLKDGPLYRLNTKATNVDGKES"}
{"Sequence": "ACCTCGTA", "E-score": -0.0664}
{"Sequence": "AGATCTTG", "E-score": -0.2}
{"Sequence": "ACAGTAGA", "E-score": -0.111}
{"Sequence": "ACGCTAAG", "E-score": 0.0582}
{"Sequence": "CTAGGAGC", "E-score": -0.0941}
{"Sequence": "AAATGGCT", "E-score": -0.139}
{"Sequence": "GGAAAAAC", "E-score": 0.0767}
{"Sequence": "TGGCCCCA", "E-score": -0.279}
{"data": "Set 3", "target": "PABPC1L2, full length, GST fusion (mouse, UniProt A0ABA7IW68)", "technique": "RNAcompete", "form": "RNA", "medium": "in vitro", "tested at": "20 nM", "setting": "7-mer, probes averaged, single round", "baseline": "mean of 7-mers", "reading": "higher = stronger binding", "Residues (chain)": "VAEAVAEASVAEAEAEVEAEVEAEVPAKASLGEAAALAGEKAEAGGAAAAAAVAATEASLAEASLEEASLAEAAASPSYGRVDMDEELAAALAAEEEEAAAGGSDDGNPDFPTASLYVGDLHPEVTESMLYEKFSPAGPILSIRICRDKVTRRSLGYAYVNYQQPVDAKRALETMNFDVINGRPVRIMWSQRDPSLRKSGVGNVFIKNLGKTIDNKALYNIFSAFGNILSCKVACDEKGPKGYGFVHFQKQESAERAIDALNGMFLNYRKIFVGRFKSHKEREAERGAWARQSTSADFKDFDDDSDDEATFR"}
{"Sequence": "UCUCUGU", "7-mer Z-score": -0.353}
{"Sequence": "CGACGUG", "7-mer Z-score": -0.0736}
{"Sequence": "GCUGUGU", "7-mer Z-score": -0.266}
{"Sequence": "GCUGCCC", "7-mer Z-score": -0.445}
{"Sequence": "AUCUAAG", "7-mer Z-score": -0.0953}
{"Sequence": "CGCACGC", "7-mer Z-score": -0.19}
{"Sequence": "GUGGCUU", "7-mer Z-score": -0.0301}
{"Sequence": "GGCGACC", "7-mer Z-score": 0.0841}
{"data": "Single results of other studies"}
{"Sequence": "LQPSDTLLF", "target": "HLA class I histocompatibility antigen, A alpha chain, allele A*80:01 (Homo sapiens, UniProt P04439)", "test": "peptide-MHC binding", "system": "peptide", "setting": "concentration not given", "endpoint": "binding", "result": "inactive"}
{"note": "Excerpt of the above (set 1):"}
{"Sequence": "ACCAUGCAGGUGGGCAUCUUUGAGAAGUGGGGCAAGGGGGGGAUAGGGAGGGGGGUAACACUUUGGGAACAGGUGGUCCCAGGUCGUUUC", "log2 enrichment": -1.12}
{"Sequence": "CACAGACAACACGCACCCACUCAGACACAGAGGGAAGGGGUUGGGAUGGGGACAGGGUGCACAGCAGGGCGGGGUAGGACCCCAGCCCCU", "log2 enrichment": -0.246}
{"Sequence": "GCAGGAAGUAAAAACAAAUGGAAAUGCUUCGGAUAGUGGCAGGGGUGGGGGUUGCUAAGGAAAGGGUGAGAUGGGAGUGGGUAAAGAGUU", "log2 enrichment": 1.84}
